Assay results of several laboratories.
Lines come from different studies, so protocols differ.
RAP1/Yku70/Yku80: RAP1/Yku70/Yku80 (Saccharomyces cerevisiae)
Rc3h1: Rc3h1 411-454 (Mus musculus, UniProt Q4VGL6)
Chain of UniProt Q4VGL6 (whole entry, looked up): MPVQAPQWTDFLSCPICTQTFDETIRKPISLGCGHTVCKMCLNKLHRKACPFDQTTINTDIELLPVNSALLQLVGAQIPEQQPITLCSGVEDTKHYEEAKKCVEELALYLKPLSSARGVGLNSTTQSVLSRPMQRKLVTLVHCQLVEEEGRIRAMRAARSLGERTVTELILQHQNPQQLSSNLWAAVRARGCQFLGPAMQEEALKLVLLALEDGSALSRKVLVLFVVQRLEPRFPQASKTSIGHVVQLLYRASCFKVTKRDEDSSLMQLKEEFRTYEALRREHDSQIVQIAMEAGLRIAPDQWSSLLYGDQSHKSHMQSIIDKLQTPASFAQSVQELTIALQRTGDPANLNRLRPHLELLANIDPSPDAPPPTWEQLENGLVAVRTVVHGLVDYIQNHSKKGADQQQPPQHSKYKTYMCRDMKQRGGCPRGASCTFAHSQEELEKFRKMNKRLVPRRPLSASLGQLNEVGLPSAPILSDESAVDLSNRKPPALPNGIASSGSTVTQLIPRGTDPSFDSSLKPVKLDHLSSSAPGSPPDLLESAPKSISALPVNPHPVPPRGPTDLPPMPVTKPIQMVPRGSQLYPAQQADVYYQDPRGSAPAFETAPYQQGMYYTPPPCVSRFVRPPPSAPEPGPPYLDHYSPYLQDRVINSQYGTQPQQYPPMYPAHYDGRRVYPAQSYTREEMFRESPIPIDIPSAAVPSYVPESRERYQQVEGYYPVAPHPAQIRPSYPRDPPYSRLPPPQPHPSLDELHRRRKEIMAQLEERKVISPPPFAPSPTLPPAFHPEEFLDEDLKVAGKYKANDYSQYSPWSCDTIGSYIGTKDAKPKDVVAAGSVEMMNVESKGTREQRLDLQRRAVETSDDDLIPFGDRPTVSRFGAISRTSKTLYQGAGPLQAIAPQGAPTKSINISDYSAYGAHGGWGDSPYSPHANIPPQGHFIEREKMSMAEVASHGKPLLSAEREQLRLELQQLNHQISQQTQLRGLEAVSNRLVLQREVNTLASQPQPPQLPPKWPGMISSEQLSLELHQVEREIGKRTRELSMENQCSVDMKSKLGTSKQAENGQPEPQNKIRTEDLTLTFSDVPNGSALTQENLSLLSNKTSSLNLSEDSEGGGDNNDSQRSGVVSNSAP
Chain of UniProt P0A7G6 (whole entry, unmodified, looked up): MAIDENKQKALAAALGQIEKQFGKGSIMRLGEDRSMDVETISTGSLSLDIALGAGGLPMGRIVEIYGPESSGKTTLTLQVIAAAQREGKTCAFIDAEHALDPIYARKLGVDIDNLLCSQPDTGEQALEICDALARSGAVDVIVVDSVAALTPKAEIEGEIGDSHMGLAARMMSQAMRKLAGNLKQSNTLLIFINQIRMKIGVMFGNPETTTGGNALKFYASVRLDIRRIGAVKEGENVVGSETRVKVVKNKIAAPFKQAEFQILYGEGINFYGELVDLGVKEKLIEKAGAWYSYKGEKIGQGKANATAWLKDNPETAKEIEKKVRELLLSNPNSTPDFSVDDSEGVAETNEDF
Chain of UniProt Q9Y3Z3 (whole entry, looked up): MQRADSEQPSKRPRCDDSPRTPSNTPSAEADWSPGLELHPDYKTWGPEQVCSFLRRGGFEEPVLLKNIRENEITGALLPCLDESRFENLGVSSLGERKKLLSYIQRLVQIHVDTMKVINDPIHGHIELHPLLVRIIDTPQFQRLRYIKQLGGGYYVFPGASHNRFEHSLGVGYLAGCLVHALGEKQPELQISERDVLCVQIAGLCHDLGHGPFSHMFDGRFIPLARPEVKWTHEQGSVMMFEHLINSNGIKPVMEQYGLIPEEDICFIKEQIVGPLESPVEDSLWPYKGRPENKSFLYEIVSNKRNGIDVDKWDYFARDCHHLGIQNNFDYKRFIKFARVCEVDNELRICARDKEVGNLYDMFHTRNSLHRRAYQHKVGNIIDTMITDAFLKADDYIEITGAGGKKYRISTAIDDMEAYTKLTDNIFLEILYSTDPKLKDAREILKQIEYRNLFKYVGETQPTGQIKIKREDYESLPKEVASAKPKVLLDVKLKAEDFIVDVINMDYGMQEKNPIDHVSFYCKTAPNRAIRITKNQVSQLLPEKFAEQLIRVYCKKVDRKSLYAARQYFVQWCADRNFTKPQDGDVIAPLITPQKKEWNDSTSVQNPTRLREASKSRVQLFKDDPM
Chain of UniProt P02666 (whole entry, looked up): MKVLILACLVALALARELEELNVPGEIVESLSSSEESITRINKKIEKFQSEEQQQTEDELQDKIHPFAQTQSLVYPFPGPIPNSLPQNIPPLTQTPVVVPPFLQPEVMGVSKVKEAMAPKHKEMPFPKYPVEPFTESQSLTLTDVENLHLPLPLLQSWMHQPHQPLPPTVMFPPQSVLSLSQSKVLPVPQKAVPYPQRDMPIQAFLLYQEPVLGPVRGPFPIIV
Chain of UniProt Q6R0H1 (whole entry, looked up): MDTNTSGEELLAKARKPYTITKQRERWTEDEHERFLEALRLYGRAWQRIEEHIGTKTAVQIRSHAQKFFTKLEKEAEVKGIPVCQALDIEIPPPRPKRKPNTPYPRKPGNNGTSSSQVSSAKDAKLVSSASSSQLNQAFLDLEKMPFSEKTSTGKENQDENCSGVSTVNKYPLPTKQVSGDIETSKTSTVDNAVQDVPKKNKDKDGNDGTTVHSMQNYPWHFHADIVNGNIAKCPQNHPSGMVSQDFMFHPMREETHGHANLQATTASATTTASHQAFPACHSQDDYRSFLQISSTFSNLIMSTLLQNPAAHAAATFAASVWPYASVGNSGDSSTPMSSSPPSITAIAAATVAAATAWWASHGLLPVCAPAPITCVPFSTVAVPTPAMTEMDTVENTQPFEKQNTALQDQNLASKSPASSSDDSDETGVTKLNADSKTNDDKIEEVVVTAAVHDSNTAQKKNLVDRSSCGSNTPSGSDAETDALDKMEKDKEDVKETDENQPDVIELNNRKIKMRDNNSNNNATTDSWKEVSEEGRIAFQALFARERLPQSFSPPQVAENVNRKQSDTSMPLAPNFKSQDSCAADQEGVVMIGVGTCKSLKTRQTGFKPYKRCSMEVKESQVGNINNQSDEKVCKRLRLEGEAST
Chain of UniProt P55265 (whole entry, looked up): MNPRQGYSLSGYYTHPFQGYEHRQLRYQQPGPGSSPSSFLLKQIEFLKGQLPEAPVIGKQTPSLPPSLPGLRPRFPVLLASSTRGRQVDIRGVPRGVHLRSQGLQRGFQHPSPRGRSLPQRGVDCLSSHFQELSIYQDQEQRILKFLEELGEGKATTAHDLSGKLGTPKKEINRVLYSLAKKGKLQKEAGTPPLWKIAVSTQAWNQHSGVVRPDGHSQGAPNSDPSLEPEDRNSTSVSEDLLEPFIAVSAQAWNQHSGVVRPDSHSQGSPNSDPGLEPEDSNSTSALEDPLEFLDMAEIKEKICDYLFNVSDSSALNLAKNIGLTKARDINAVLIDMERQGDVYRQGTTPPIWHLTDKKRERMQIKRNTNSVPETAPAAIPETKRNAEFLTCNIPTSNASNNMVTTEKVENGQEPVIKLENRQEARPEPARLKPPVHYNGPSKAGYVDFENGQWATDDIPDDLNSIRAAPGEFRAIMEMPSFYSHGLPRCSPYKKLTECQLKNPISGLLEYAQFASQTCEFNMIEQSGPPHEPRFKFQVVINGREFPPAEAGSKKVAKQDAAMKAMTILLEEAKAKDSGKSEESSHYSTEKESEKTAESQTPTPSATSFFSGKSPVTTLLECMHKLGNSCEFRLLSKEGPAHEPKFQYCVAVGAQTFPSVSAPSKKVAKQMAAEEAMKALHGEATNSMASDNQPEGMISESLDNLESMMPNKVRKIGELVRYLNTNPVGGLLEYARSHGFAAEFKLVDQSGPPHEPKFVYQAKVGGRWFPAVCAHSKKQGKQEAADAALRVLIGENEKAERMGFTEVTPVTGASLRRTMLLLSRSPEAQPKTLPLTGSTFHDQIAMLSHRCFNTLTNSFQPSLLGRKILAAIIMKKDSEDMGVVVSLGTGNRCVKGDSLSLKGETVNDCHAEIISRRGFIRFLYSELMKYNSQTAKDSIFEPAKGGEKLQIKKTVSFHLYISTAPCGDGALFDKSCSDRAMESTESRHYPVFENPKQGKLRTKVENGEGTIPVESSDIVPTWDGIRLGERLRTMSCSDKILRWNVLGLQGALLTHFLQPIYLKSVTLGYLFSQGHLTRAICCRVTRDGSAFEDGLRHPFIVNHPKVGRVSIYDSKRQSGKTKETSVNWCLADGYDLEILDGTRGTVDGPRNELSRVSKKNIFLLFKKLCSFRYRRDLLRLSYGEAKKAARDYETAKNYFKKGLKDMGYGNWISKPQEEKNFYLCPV
Chain of UniProt Q15109 (whole entry, looked up): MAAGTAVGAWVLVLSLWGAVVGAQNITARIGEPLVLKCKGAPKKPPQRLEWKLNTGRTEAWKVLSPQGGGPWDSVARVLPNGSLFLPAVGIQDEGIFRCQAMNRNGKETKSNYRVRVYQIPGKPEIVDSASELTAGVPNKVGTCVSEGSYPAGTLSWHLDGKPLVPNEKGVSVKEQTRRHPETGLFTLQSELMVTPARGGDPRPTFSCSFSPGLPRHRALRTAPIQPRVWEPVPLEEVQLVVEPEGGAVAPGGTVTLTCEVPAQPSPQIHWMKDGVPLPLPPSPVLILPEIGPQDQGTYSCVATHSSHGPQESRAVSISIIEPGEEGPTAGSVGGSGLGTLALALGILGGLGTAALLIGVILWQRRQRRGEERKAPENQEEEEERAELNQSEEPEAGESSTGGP
Chain of UniProt Q9NSP4 (whole entry, looked up): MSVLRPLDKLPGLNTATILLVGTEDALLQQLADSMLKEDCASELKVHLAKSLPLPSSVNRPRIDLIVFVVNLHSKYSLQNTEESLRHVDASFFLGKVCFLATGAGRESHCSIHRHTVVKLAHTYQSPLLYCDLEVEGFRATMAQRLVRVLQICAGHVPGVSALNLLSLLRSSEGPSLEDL
Chain of UniProt Q9SM50 (whole entry, looked up): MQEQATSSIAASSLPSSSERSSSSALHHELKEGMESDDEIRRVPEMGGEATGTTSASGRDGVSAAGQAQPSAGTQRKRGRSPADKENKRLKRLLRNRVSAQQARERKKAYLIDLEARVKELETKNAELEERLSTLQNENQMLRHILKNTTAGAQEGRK

| Substance | tested on | test | system | setting | scale | quantity | value |
| --- | --- | --- | --- | --- | --- | --- | --- |
| GGTTAGGGTTAG (ssDNA; 5'-phosphate) | POT1 1-299 R80A (Homo sapiens, UniProt Q9NUX5) | EMSA | single-stranded DNA |  |  | binding | binds |
| ACACATTATGTTGTTTATTGTACGGCCAACATTTTGCCTAACA (dsDNA) | SPL13 1-401 (Vitis vinifera, UniProt F6GSW2) | EMSA | double-stranded DNA, one strand shown |  |  | binding | binds |
| GGTGGTGGTGGTGGTGGT (ssDNA) | recA full length assumed F204M (Escherichia coli, UniProt P0A7G6) | fluorescence anisotropy | single-stranded DNA | together with: ATPγS |  | binding | binds |
| GAACAUAGAAAGAGAGAGAUAUAAA (ssRNA; m6A position 3) | ECT2 full length assumed W521A (Arabidopsis thaliana, UniProt Q9LJE5) | EMSA | RNA |  |  | binding | no binding |
| CACUAUCGGAAAAAGGGCGACACGGAUAUGUU (ssRNA) | SAMHD1 full length assumed (Homo sapiens, UniProt Q9Y3Z3) | fluorescence anisotropy | RNA |  |  | binding | binds |
| GAGCTGCAAGTGGATATTTGGACCTCTTTGAGGTCTTCGTTGGAAACGGGATTTCCTCATATAATGTTACACAGAAGAATTCTCAGTAACTTATTTGTGGTGTGTGTATTCAACTCACAGAGGTGAACCTTCCTTCAGAAAGAGCAGATTTGAAACACTCTTTTTGTACCC (dsDNA) | CENPM 1-171 (Homo sapiens, UniProt Q9NSP4) | EMSA | double-stranded DNA, one strand shown |  |  | binding | no binding |
| GTGTGGTTAATATGGTGTGGTTAATATGGTGTGGTTAATATGGTGTGGTTAATATG (dsDNA) | RNJ 604-911 W873A (Arabidopsis thaliana, UniProt Q84W56) | EMSA | double-stranded DNA, one strand shown |  |  | binding | no binding |
| GTGGTGTGTGGGTGTGTGTGT (dsDNA) | RAP1/Yku70/Yku80 | cryo-EM | double-stranded DNA, one strand shown |  |  | binding | binds |
| AAACCGCTCTCCCATATGCGACGCGCG (dsDNA) | Opaque endosperm 11 1-624 (Zea mays, UniProt A0A1D6EAS7) | EMSA | double-stranded DNA, one strand shown | together with: Mg2+ |  | binding | no binding |
| DNA 1 AGATGTCCTAGTTTAGTTGGCTGATCGTTG / DNA 2 CAACGATCAGCCAAC (dsDNA; 5' 15 nt overhang; 3'-recessed) | tnsE full length assumed R388P (Escherichia coli, UniProt P05845) | EMSA | double-stranded DNA |  |  | binding | binds |
| TCGTCGTTTTGTCGTTTTGTCGTT (ssDNA) | AGER 23-342 (Homo sapiens, UniProt Q15109) | competition EMSA | single-stranded DNA |  |  | binding | binds |
| CGCGCG (dsRNA; blunt self-complementary duplex) | ADAR 133-199 (Homo sapiens, UniProt P55265) | CD | double-stranded RNA, one strand shown |  |  | binding | binds |
| CTCATTACACAGTCTTAGTCACATCGGTGAAAATATCAATTAATATTCCCCAGAAAGTTG (dsDNA) | CCA1 full length assumed (Arabidopsis thaliana, UniProt P92973) | EMSA | double-stranded DNA, one strand shown |  |  | binding | binds |
| ATACTAACAATCAGAACCCGGATTAATCGAAAGCTT (dsDNA) | tnsD 1-318 (Escherichia coli, UniProt P13991) | EMSA | double-stranded DNA, one strand shown |  |  | binding | binds |
| ACCGGAAGTG (dsDNA) | ERF 22-140 (Homo sapiens, UniProt P50548) | X-ray crystallography | double-stranded DNA, one strand shown | Cys72 reduced |  | binding | binds |
| TGTTGTGTGGAATTGTGAGCGGATAACAATTTCACACAGG (dsDNA (Escherichia coli); blunt) | lacI full length assumed N125C (Escherichia coli, UniProt P03023) | filter binding | double-stranded DNA, one strand shown |  |  | binding | binds |
| TGGGTGGGTAGGGTGGGT (G-quadruplex DNA; parallel) | PARP2 full length, 1-570 (Homo sapiens) | EMSA | folded DNA |  |  | binding | no binding |
| TCTCCTTTTTGCTTGACACTGACCAAAAAA (dsDNA) | WRKY domain-containing protein 1-253 (Triticum aestivum, UniProt A0A3B5Y6J9) | EMSA | double-stranded DNA, one strand shown |  |  | binding | binds |
| ATACGGGAAGTTTGAGGCAAAATCCACTTGACCATAC (dsDNA) | ERF-D2 full length assumed (Solanum lycopersicum, UniProt A0A3Q7JX06) | EMSA | double-stranded DNA, one strand shown | mutant probe |  | binding | no binding |
| TTTTTTTTTTTTTTTTTTTTTTTTTTTTTTTTTTTTTTTTTTTTTTTTTTTTTTTTTTTTTTTTTTTTTT (ssDNA) | RAD51 full length assumed Y112E/Y253K (Saccharomyces cerevisiae, UniProt P25454) | fluorescence anisotropy | single-stranded DNA | together with: ATP |  | binding | no binding |
| ACCAAGCGGGATGCGTAGCCGCCGCCGCCGCCG (dsDNA; blunt) | WT1 zinc finger domain 323-435 (Homo sapiens) | EMSA | double-stranded DNA, one strand shown |  |  | binding | no binding |

| Substance | tested on | test | system | setting | scale | quantity | value |
| --- | --- | --- | --- | --- | --- | --- | --- |
| CAGCATGGCAGCGCGCATAATCAGCGCGGCAGCGCATTTTCATTC (dsDNA) | gbp (Glycine max, UniProt Q8LKV1) | EMSA | double-stranded DNA, one strand shown |  |  | binding | no binding |
| TTAAAACATGTTGAGCTACAGCACCAGATTCAGCAATTAAGCTCTAAGCCATCCGCAAAAATGACCTCTTATCAA (ssDNA) | MGM101 23-269 (Saccharomyces cerevisiae, UniProt P32787) | native MS | single-stranded DNA |  |  | binding | binds |
| GATCATGCAGGACAGTCGGATCGCAACCTGATTTACTGTGTCATATAGTACGTGATTCAG (ssDNA) | gene 32 protein 1-301 (bacteriophage T4, UniProt P03695) | EMSA | single-stranded DNA | no ATP, together with: Mg2+ 10 mM |  | binding | binds |
| ATACATGCAAACGTTCTTTTAAAA (dsDNA) | HY5 full length assumed (Solanum lycopersicum, UniProt Q9SM50) | EMSA | double-stranded DNA, one strand shown |  |  | binding | binds |
| TTTTTTTT (ssDNA) | Rc3h1 | NMR | single-stranded DNA |  |  | binding | binds |
| TATCGAGTTGAAAAAAAAACTCCTCGGTG (dsDNA) | Ethylene-responsive transcription factor 13 (Nicotiana attenuata, UniProt A0A1J6JM52) | EMSA | double-stranded DNA, one strand shown |  |  | binding | no binding |
| TTTTTTTTTTCGTATGGCACGGGGTTGGTGTTGGGTTGG (ssDNA; 5'-phosphate; G-quadruplex) | CSN2 16-224 (Bos taurus, UniProt P02666) | electrolyte-gated transistor sensor | single-stranded DNA |  |  | binding | no binding |
| ACCAAGCGGGATGTGGAGCCGCCGCCGCCGCCG (dsDNA; blunt) | WT1 zinc finger domain 323-435 (Homo sapiens) | EMSA | double-stranded DNA, one strand shown |  |  | binding | no binding |
| colistin | Enterobacter cloacae | broth microdilution | clinical isolate RKI-No_141/15 |  |  | MIC | 4 µg/mL |
| TGAGGCGTGTTTGCCCACGTACTATCTGTACTGCAAGGTT (dsDNA) | Transcription factor full length assumed (Rosa chinensis, UniProt A0A2P6P452) | EMSA | double-stranded DNA, one strand shown |  |  | binding | binds |
| ATAAGTCACATGATGATATTTGATTTTATTATATTTTTAAAAAAAGTAAAAAATAAAAAGTAGTTTATTTTTAAAAAATAAAATTTAAAATATTTCACAAAATGATTTCCGAA (dsDNA) | CENP-I 1-229 K189E/K209E/R216D/R225D/R226D (Thermochaetoides thermophila, UniProt G0SFF7) | EMSA | double-stranded DNA, one strand shown |  |  | binding | no binding |
| AAGGTGTGTGGGTGTGGTAATCT (dsDNA) | RAP1/Yku70/Yku80 | EMSA | double-stranded DNA, one strand shown |  |  | binding | binds |
| TAATTTTAAACAAAATATTAACAATTAAAATATCACCCTTGTGAATAATATTTAAAACTT (dsDNA) | LHY full length assumed (Arabidopsis thaliana, UniProt Q6R0H1) | EMSA | double-stranded DNA, one strand shown |  |  | binding | binds |
| CGGGTTTCATGTACGTTTTCCGCTAGTTGGCGCGCGTGAACCCGCCGTTCGGGAAATTGCGT (dsDNA; blunt) | rcoM2 full length assumed (Paraburkholderia xenovorans, UniProt Q13IY4) | fluorescence anisotropy | double-stranded DNA, one strand shown | Fe(II)-CO |  | binding | binds |
| GGUGUAGAUCAGGCCCGUCUGUUUCUCCCCCGGAGCUCGCUCCCUUGGCUUCCCUUAUAUAUUUUAACAUCAGAAACAGACAUUAAACAUCUACUGAUCCAAUUUCGCCGGCGUACGGCCACGAUCGGGAGGGUGGGAAUCUCGGGGGUCUUCCGAUCCUAAUCCAUGAUGAUUACGACCUGAGUCACUAAAGACGAUGGCAUGAUGAUCCGGCGAUGAAAAA (structured RNA) | Reverse transcriptase-like protein 275-1114 D996A (Bombyx mori, UniProt V9H052) | competition | folded RNA |  |  | binding | binds |
| AATTAGTCGCCACGTGTTTTACTTTA (dsDNA) | HY5/CaM2 1-158; 1-149 (Solanum lycopersicum) | EMSA | double-stranded DNA, one strand shown | together with: CaCl2 5 mM |  | binding | binds |
| QDEKVKESYV | human MAGI1-3/6 PDZ construct (MBP fusion) | surface plasmon resonance | peptide | concentration not given | higher = stronger binding | normalised SPR binding response | 102 normalised RU |
| ATTTTTTT (ssDNA) | Rc3h1 | NMR | single-stranded DNA |  |  | binding | binds |
| GGATCTCGACGCTCTCCCTT (dsDNA) | RECQL 49-616 D230A/R232A (Homo sapiens, UniProt P46063) | fluorescence anisotropy | double-stranded DNA, one strand shown | Mg2+ 5 mM, together with: ADPNP 2 mM |  | binding | no binding |
| NPDALPETLV | human MAGI1-3/6 PDZ construct (MBP fusion) | surface plasmon resonance | peptide | concentration not given | higher = stronger binding | normalised SPR binding response | 62.4 normalised RU |

Some of these lines once more:
| Substance | tested on | test | system | setting | scale | quantity | value |
| --- | --- | --- | --- | --- | --- | --- | --- |
| TTTTTTTTTTTTTTTTTTTTTTTTTTTTTTTTTTTTTTTTTTTTTTTTTTTTTTTTTTTTTTTTTTTTTT (ssDNA) | RAD51 full length assumed Y112E/Y253K (Saccharomyces cerevisiae, UniProt P25454) | fluorescence anisotropy | single-stranded DNA | together with: ATP |  | binding | no binding |
| ACCAAGCGGGATGCGTAGCCGCCGCCGCCGCCG (dsDNA; blunt) | WT1 zinc finger domain 323-435 (Homo sapiens) | EMSA | double-stranded DNA, one strand shown |  |  | binding | no binding |
| CAGCATGGCAGCGCGCATAATCAGCGCGGCAGCGCATTTTCATTC (dsDNA) | gbp (Glycine max, UniProt Q8LKV1) | EMSA | double-stranded DNA, one strand shown |  |  | binding | no binding |
| TTAAAACATGTTGAGCTACAGCACCAGATTCAGCAATTAAGCTCTAAGCCATCCGCAAAAATGACCTCTTATCAA (ssDNA) | MGM101 23-269 (Saccharomyces cerevisiae, UniProt P32787) | native MS | single-stranded DNA |  |  | binding | binds |
